Experimental data of several laboratories.
Every numbered part comes from another study and shows a few of its results, in no order. Changes are numbered by the printed parent chain.

Set 1
Target: Interferon regulatory factor 7, full length, phosphomimetic (IRF7, Homo sapiens, UniProt Q92985, residues 1-503, S101K/S471D/S472D/S475D/S476D/S477D/S483D/S484D/S487D)
Technique: protein-binding microarray
Form: double-stranded DNA, one strand shown
Matrix: in vitro
Tested at: 250 nM
Setting: 60-bp whole probe
Added: salmon DNA 0.4 mg/ml
Reference: random background probes
Direction: higher = stronger binding
All sequences stand within: GCCTAGCAC … GTCTTGATTCGCTTGACGCTGCTG
Residues (chain): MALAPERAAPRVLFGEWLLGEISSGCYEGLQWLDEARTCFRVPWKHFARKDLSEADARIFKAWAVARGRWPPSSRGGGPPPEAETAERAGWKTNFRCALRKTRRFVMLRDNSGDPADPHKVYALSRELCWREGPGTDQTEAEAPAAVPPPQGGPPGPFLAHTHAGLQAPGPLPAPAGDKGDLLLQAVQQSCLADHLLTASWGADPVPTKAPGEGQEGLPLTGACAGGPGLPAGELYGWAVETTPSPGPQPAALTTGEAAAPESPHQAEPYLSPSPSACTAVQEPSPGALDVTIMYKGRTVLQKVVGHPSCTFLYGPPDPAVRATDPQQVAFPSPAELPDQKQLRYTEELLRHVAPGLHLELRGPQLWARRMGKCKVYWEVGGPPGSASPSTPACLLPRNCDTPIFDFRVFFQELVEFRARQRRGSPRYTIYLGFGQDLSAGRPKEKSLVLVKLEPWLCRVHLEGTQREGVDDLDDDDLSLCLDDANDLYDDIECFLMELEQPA
| Sequence | log fluorescence [z-score] |
| --- | --- |
| TCATTTTTTTTTTTTTGACTGTGCTAG | 0.836 |
| TTAGATTTCAGACTGGGTTAGTGCTAG | 0.117 |
| TTAGGACTGGGGATCGGTTAGTGCTAG | 0.321 |
| CCTGGACGGGAGTGCGGTGCGTGCTAG | -1.06 |
| CAGTTAATGAAAATTCTAATTGTGCTA | 0.349 |
| TATTTTTTCTGAACCATTTTGTGCTAG | 1.17 |
| TCACTCTTCTTTTGCTAACTGTGCTAG | 0.83 |
| TCATCTAAGGATTTCAGACTGTGCTAG | -0.294 |
| TCACTTCTTTTTTATTCTACTGTGCTA | 1.36 |
| GACGGTTTCGGGTTTGGGGACGTGCTA | 10.2 |

Set 2
Target: CCNE1, cyclin fold, Cln2 fusion (human)
Technique: yeast growth competition, sequencing
Matrix: yeast
Setting: strong parent motif
Reference: not given
Direction: higher = stronger binding
Starting sequence: E2F2 docking peptide (human); LPAKRKLDLEGIG; partner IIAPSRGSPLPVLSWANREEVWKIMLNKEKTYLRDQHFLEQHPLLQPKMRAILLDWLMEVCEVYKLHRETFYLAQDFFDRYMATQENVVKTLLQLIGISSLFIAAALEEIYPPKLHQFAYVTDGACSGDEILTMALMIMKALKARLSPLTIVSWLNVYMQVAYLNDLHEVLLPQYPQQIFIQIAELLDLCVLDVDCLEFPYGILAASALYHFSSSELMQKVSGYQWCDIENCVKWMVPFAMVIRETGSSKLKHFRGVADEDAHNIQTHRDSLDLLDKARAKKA
| Change | normalised enrichment score |
| --- | --- |
| LPAKRKLDLEAIG [G11A] | 0.0693 |
| LPAKRKLDLEGIA [G13A] | 1.21 |
| APAKRKLDLEGIG [L1A] | 0.745 |
| LAAKRKLDLEGIG [P2A] | 0.589 |
| LPAKRKADLEGIG [L7A] | -0.312 |
| LPAKRKLDAEGIG [L9A] | 0.221 |
| LPAKKKLDLEGIG [R5K] | 0.594 |

Set 3
Target: ABI1, truncated, D143A, DHFR fusion (Arabidopsis thaliana)
Technique: DHFR PCA, deep sequencing
Matrix: yeast
Setting: methotrexate growth selection, single substitutions
Added: (+)-ABA 0.39 µM
Reference: wild-type fitted maximum
Direction: higher = stronger binding
Starting sequence: PYL1, truncated, DHFR fusion (Arabidopsis thaliana); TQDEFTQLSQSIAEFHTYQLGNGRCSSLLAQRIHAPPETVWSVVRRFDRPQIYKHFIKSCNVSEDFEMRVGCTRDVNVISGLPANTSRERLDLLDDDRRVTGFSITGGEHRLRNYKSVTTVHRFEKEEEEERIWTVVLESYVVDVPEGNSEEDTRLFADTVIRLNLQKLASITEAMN
| Change | relative binding score |
| --- | --- |
| W134Y | 84.8% |
| V143N | -25.2% |
| S63F | 2.07% |
| S9E | 54.3% |
| T160D | -3.01% |
| N114R | 1.35% |
| P146G | 4.04% |

Mixed results
| Molecule | target | assay | system | setting | scale | endpoint | value |
| --- | --- | --- | --- | --- | --- | --- | --- |
| PhoQ, residues 284 288 289 292 302 303 NLMGRA | PhoP, residues 12 14 15 18 19 NNFVT (Escherichia coli, UniProt P23836) | Sort-seq, measured: YFP reporter | E. coli | PhoQ-PhoP variant library, added: 10 µM Mg2+ | reference: high Mg2+ state, higher = stronger signaling | fold induction | 16.2 |

Some of these lines once more (set 1):
| Sequence | log fluorescence [z-score] |
| --- | --- |
| TCACTCTTCTTTTGCTAACTGTGCTAG | 0.83 |
| TCATCTAAGGATTTCAGACTGTGCTAG | -0.294 |
| TCACTTCTTTTTTATTCTACTGTGCTA | 1.36 |
| GACGGTTTCGGGTTTGGGGACGTGCTA | 10.2 |
